# Measurements from different studies.
# A part holds a random share of what one study measured.
# Chain of UniProt Q9HBH9 (whole entry, looked up): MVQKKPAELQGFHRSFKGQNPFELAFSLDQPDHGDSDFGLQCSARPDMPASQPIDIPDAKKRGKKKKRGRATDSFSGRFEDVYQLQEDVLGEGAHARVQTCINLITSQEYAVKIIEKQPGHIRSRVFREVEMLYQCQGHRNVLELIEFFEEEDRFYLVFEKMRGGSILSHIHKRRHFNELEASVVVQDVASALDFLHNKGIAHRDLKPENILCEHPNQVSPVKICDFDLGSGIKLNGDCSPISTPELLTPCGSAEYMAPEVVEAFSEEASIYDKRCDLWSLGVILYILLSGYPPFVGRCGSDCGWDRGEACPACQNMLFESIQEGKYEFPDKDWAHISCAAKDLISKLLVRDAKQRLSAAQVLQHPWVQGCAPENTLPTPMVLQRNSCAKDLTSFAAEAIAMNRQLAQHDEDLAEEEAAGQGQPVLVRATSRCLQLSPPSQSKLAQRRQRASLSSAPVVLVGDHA
# Chain of UniProt Q15375 (whole entry, looked up): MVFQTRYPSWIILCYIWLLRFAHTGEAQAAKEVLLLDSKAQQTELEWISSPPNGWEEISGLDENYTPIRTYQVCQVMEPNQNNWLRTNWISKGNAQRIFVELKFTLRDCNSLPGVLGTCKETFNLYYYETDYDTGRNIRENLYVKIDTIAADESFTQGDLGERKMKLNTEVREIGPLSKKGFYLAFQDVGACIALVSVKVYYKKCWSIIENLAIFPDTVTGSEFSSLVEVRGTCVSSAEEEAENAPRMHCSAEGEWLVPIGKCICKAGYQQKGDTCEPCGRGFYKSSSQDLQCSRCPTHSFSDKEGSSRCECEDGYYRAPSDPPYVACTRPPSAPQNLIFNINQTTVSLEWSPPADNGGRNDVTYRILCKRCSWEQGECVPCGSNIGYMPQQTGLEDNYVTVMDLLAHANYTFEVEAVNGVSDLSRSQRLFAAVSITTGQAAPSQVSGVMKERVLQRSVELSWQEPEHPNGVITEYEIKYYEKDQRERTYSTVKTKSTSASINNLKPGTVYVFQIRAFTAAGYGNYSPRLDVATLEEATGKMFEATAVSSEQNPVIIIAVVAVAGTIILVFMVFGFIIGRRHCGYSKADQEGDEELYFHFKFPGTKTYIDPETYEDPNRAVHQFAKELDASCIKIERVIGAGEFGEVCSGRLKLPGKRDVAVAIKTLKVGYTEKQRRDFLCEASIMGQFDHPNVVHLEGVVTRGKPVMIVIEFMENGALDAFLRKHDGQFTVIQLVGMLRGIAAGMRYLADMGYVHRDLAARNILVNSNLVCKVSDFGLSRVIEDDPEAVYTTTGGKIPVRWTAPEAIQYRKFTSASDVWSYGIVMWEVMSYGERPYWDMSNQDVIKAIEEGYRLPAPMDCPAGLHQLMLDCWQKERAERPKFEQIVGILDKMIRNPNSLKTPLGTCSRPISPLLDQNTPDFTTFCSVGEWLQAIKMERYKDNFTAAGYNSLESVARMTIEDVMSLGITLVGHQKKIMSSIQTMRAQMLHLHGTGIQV
# Chain of UniProt P42684 (whole entry, looked up): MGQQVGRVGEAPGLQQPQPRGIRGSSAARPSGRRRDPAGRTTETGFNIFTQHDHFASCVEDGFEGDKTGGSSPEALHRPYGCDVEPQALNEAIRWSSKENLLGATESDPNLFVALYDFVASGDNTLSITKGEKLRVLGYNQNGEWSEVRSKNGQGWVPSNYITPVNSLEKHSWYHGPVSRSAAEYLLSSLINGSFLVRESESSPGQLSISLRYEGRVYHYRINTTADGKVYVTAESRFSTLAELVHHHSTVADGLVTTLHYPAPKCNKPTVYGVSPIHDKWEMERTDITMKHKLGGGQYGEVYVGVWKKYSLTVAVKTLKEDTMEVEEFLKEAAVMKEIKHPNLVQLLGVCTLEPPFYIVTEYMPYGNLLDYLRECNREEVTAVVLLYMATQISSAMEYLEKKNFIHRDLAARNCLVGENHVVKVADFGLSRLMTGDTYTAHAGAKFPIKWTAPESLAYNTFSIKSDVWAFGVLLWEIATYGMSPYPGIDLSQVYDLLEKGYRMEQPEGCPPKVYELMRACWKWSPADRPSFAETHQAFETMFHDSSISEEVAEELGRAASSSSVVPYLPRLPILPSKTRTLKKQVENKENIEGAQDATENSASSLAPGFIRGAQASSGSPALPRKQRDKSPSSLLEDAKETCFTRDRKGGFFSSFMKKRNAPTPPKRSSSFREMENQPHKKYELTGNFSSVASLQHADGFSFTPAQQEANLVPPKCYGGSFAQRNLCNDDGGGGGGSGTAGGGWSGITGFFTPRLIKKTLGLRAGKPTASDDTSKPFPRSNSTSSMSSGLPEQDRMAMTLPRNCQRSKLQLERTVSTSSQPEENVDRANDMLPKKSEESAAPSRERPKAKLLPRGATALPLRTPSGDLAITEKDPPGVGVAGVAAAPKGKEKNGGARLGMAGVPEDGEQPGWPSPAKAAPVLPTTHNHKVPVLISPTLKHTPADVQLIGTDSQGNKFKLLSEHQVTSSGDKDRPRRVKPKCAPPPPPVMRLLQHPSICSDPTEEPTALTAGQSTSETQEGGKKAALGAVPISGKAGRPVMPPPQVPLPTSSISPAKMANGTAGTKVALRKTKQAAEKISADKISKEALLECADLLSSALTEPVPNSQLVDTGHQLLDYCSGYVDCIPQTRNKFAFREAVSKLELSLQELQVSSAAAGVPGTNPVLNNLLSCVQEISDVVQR
# Chain of UniProt Q15831 (whole entry, looked up): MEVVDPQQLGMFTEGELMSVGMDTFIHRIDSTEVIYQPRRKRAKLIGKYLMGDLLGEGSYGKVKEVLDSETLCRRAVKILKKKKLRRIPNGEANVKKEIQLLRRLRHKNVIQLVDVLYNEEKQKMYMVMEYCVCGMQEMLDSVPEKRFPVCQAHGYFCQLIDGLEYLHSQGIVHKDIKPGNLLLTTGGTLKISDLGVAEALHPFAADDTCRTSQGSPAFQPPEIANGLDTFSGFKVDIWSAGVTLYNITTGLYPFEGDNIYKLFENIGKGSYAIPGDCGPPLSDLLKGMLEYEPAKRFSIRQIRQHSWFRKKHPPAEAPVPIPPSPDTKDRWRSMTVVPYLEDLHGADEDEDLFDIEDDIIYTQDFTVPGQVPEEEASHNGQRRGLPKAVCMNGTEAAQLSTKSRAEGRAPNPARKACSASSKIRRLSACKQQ
# Chain of UniProt O75716 (whole entry, looked up): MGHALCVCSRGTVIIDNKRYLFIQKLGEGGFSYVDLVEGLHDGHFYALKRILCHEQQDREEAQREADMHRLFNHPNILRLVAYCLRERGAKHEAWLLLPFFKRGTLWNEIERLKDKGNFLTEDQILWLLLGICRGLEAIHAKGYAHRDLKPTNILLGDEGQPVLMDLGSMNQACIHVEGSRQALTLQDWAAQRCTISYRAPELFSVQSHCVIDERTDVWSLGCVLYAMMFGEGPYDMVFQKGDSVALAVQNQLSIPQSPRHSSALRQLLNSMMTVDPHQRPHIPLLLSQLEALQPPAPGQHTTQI
# Chain of UniProt P22607 (whole entry, looked up): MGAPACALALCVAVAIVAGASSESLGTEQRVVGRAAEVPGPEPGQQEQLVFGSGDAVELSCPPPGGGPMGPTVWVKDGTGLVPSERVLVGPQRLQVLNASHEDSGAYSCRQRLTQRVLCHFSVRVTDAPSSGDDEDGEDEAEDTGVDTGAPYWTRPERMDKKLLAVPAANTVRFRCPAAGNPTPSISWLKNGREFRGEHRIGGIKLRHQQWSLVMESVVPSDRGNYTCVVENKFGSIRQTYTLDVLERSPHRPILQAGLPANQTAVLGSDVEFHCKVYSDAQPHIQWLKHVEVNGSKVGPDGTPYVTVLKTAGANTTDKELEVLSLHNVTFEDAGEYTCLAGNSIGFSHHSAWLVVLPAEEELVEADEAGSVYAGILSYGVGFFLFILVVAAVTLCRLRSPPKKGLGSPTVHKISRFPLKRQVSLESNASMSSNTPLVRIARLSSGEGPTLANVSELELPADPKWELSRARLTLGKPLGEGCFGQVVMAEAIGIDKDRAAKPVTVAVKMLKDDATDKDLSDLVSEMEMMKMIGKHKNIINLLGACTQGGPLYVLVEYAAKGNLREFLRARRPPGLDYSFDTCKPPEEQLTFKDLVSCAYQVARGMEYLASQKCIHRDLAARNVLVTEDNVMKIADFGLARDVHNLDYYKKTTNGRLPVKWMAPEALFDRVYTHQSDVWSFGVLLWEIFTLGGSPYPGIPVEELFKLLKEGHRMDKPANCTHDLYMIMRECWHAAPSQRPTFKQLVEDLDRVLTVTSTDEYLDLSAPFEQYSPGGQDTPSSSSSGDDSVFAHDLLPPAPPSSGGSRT

# Set 1
# SMILES: CCOCCn1cc(C(=O)Nc2ccc(-n3nc(-c4cccnc4)cc3C(F)(F)F)cn2)ccc1=O
# Observed: cell-free assay
# Technique: competition with immobilised ligand
# Concentration: 1 µM
target,remaining binding
"WNK3 (Homo sapiens, UniProt Q9BYP7)",76%
"MYLK4 (Homo sapiens, UniProt Q86YV6)",100%
"PRKD3 (Homo sapiens, UniProt O94806)",81%
"Receptor-type tyrosine-protein kinase FLT3, autoinhibited (FLT3, Homo sapiens, UniProt P36888)",87%
"CDK17 (Homo sapiens, UniProt Q00537)",96%
"MKNK2 (Homo sapiens, UniProt Q9HBH9)",100%
"MAP2K4 (Homo sapiens, UniProt P45985)",80%
"MAP3K3 (Homo sapiens, UniProt Q99759)",100%
"HASPIN (Homo sapiens, UniProt Q8TF76)",100%
"EPHA7 (Homo sapiens, UniProt Q15375)",98%
"DYRK1B (Homo sapiens, UniProt Q9Y463)",39%
"STK16 (Homo sapiens, UniProt O75716)",92%
"STK11 (Homo sapiens, UniProt Q15831)",89%

# Set 2
# SMILES: C[C@@H]1CCN(C(=O)CC#N)C[C@@H]1N(C)c1ncnc2[nH]ccc12
# Observed: enzyme activity
# Action: inhibitor
# Concentration: 0.5 µM
# Reference: control
target,remaining activity [%]
"MST1R (Homo sapiens, UniProt Q04912)",102
"TBK1 (Homo sapiens, UniProt Q9UHD2)",92.5
"GRK7 (Homo sapiens, UniProt Q8WTQ7)",102
"MAP3K14 (Homo sapiens, UniProt Q99558)",107
"NEK6 (Homo sapiens, UniProt Q9HC98)",83.2
"MERTK (Homo sapiens, UniProt Q12866)",114
"FGFR3 (Homo sapiens, UniProt P22607)",95.3
"ARAF (Homo sapiens, UniProt P10398)",102
"TEK (Homo sapiens, UniProt Q02763)",96.6
"MAP3K5 (Homo sapiens, UniProt Q99683)",97.8
"ABL2 (Homo sapiens, UniProt P42684)",90.5

# Set 3
# Target: RNA binding protein fox-1 homolog 2, RRM domain, GST-SBP tag (RBFOX2, Homo sapiens, UniProt O43251-10, residues 100-194)
# Technique: RNA Bind-n-Seq
# Form: RNA
# Medium: in vitro
# Concentration: 365 nM
# Setting: natural RNA segment, single round, ends assumed
# Reference: no-protein control
# Direction: higher = stronger binding
# All sequences stand within: GGGAGUUCUACAGUCCGACGAUC … UGGAAUUCUCGGGUGCCAA
# Residues (chain): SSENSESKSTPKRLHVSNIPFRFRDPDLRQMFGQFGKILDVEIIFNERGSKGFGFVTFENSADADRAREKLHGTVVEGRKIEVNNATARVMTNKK
Sequence,RBNS enrichment (R)
GUUCAACAGGGCUCUUUGAUGACAGCUUUGGGAGGAUAAAUACGACUACGCACUUUAGAUAAGCCUCUUUUUAGUUCUUUCUGUUUCUCAAUAAUGGGCCAAAAAUACAC,0.998
AAACAAGUAGCAUACAUUUUGUAAUUAACAUUGAUAAACACUGUGAUUUUUUUGGUUAAAACUUUUUCAUUGAUCUGAAUUGCUUAAAUUGCAUAUAUUGUAAAAUAGAG,0.53
AUCUGGGCCUGUCUGAACCCCUCGUUCUUCAUGUUUAGGUGAAUAUGAAUAUGUUAAAGCUGGUGGCUCAGCUGGGAGAUUUAUAUGGGUCACUGUGCGAGCUUCCUUAU,0.781
GGGUAUGUAAAAUAUGUAUGAAGAAAAGGUGUAUAAAAAUUUGCCCUUAUGCACGGAACUGUUUCUGAGUGCCAAGCACAGAAAGCCGCUAAAUAAAAUCUUUGCAAUUG,0.604
CCUUAGUUCUCAUAGAAAUUGUGGACCAAUAGGAUAUGUGCUGUGUAUAACUUUCUUUUUAAACUGUAAGUAAAGGGUCUUGCAGCUUUGUGCUUGUGUUAUCUUAGCAU,0.809
CAUAUACAUAUAUAUAUGGCCUUGUAAAACAGAUUUGAGACCUUGUGAAGAAAUGGAUAUGUUAUAUAUUUCUGCUACCUGGAUUUUCCUGGGUAAUUUGAUGGAAUAUU,0.534
GUUGCCCCUAUGCUUCCAGGGCAAUUUGGAGCAGACAGACCAGUGGGGGGUGGGGAACCUCCUUCCACCUGCGCUUCCUUGAGGGGACCAGAGAGCCCUUGGUCCCAGGU,0.239
AAUCAGGAAGCUGAUCACACUUCAUUAGAGGAUCUAGGCAUAGCUGUCUUCCAGUACUGAUAGAAGAUGCUCCUGGGCUUCAUUCUGGAUUGUUAAACAGUAGAAAUGCA,4.44

# Set 4
# Target: UBE2N UBC core domain (UniProt P61088)
# Technique: yeast two-hybrid
# Medium: yeast
# Setting: mostly zero background
# Reference: not given
# Direction: higher = stronger interaction
# B1: DTX1 RING domain (UniProt Q86Y01); chain QKVKNPPDEDCTICMERLVTASGYEGVLRHKGVRPELVGRLGRCGHMYHLLCLVAMYSNGNKDGSLQCPTCKAIYGEKTGTQ
# B2: TRIM22 RING domain (UniProt Q8IYM9); chain KEVKMSPQEGQKRDVCEHHGKKLQIFCKEDGKVICWVCELSQEHQGHQTFRINEVVKECQEK
# B3: TRIM48 RING domain (UniProt Q8IWZ4); chain ISQVFQRELTCPICMNYFIDPVTIDCGHSFCRPCFYLNWQDIPILTQCFECIKTIQQRNLKT
# B4: ZNRF3 RING domain (UniProt Q9ULT6); chain DTLSSSSTSDCAICLEKYIDGEELRVIPCTHRFHRKCVDPWLLQHHTCPHCRHNIIEQKGNP
# B5: RNF24 RING domain (UniProt Q9Y225); chain KVKELNLHELCAVCLEDFKPRDELGICPCKHAFHRKCLIKWLEVRKVCPLCNMPVLQLAQLH
# Construct (chain): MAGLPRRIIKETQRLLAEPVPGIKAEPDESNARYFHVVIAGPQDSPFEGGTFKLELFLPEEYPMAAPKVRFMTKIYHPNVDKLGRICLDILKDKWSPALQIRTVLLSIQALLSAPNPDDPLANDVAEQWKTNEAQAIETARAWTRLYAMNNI
Molecule,lacZ reporter activity
B1 (DTX1 RING domain),4100
KEQLEKHNDICAICYQDMKSAVITPCSHFFHAGCLKKWLYVQETCPLCHCHLKNSSQLP (RNF145 RING domain (UniProt Q96MT1)),0
B2 (TRIM22 RING domain),0
B3 (TRIM48 RING domain),0
B4 (ZNRF3 RING domain),9670
B5 (RNF24 RING domain),0
NTAPSLTVPECAICLQTCVHPVSLPCKHVFCYLCVKGASWLGKRCALCRQEIPEDFLDK (RNF146 RING domain (UniProt Q9NTX7)),0
ALDRLEKLLRCSRCTNILREPVCLGGCEHIFCSNCVSDCIGTGCPVCYTPAWIQDLKI (BARD1 RING domain (UniProt Q99728)),0

# Excerpt of the above (set 1):
target,remaining binding
"WNK3 (Homo sapiens, UniProt Q9BYP7)",76%
"MYLK4 (Homo sapiens, UniProt Q86YV6)",100%
"PRKD3 (Homo sapiens, UniProt O94806)",81%
"Receptor-type tyrosine-protein kinase FLT3, autoinhibited (FLT3, Homo sapiens, UniProt P36888)",87%
"CDK17 (Homo sapiens, UniProt Q00537)",96%
"MKNK2 (Homo sapiens, UniProt Q9HBH9)",100%
"MAP2K4 (Homo sapiens, UniProt P45985)",80%
